Measurements from different studies.
A part holds a random share of what one study measured. Changes are numbered by the printed parent chain.
UniProt Q9HAZ1, sequence (whole entry, looked up): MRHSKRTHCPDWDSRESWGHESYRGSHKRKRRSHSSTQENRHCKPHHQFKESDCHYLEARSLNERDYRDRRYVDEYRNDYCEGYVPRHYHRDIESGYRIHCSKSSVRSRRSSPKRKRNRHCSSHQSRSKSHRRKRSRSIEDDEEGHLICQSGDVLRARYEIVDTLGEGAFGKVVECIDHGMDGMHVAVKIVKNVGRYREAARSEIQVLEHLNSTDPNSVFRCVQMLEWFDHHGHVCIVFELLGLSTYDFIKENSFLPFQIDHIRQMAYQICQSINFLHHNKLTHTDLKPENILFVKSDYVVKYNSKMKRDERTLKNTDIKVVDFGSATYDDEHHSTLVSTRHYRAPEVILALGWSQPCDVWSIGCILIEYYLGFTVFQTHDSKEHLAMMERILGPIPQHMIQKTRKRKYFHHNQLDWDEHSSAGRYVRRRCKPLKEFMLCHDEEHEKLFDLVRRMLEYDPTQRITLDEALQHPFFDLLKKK

Block 1 — target: MAFG, bZIP domain (human); technique: DHFR protein complementation; medium: yeast; baseline: wild-type JUN-FOS pair; direction: higher = stronger binding
Notes: single substitutions, most at no-binding floor
Starting sequence: JUN, bZIP domain (human); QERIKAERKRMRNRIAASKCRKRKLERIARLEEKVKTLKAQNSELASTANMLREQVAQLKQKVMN; partner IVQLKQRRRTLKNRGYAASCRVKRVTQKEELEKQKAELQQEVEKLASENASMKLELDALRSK
| Change | binding fitness [natural log] |
| --- | --- |
| A57Q | -1.5 |
| S43K | -1.29 |
| K36Q | -1.21 |
| E54P | -1.44 |
| K39I | -1.47 |
| R30A | -1.33 |
| Q41G | -1.43 |
| L52P | -1.54 |

Block 2 — technique: Sort-seq; refers to: YFP reporter; medium: E. coli; notes: PhoQ-PhoP variant library; together with: 10 µM Mg2+; baseline: high Mg2+ state; direction: higher = stronger signaling
Molecule: PhoQ, residues 284 288 289 292 302 303 TGYLSA
| target | fold induction |
| --- | --- |
| PhoP, residues 12 14 15 18 19 NYFRM (Escherichia coli, UniProt P23836) | 12.8 |
| PhoP, residues 12 14 15 18 19 QYFSL (Escherichia coli, UniProt P23836) | 5.62 |
| PhoP, residues 12 14 15 18 19 TQALL (Escherichia coli, UniProt P23836) | 6.33 |

Block 3 — target: CCNA2, cyclin fold, Cln2 fusion (human); technique: yeast growth competition, sequencing; medium: yeast; notes: strong parent motif; baseline: not given; direction: higher = stronger binding; starting sequence: viral docking peptide; TSVRRALFTGGSD
| Change | normalised enrichment score |
| --- | --- |
| TPVRRALFTGGSD [S2P] | 5.99 |
| TSPRRALFTGGSD [V3P] | 2.62 |
| TSVRRALFSGGSD [T9S] | 6.12 |
| TSVRRALFTQGSD [G10Q] | 6.42 |
| TSGRRALFTGGSD [V3G] | 1.33 |
| TSVRRALFMGGSD [T9M] | 6.34 |
| TSVRRAFFTGGSD [L7F] | 0.486 |
| TSVPRALFTGGSD [R4P] | 1.52 |
| TSVRRALFGGGSD [T9G] | 6.7 |
| TSVRRALFTGKSD [G11K] | 6.27 |
| TSVDRALFTGGSD [R4D] | 0.121 |
| TSVRRALFTYGSD [G10Y] | 6 |
| TSVRRALYTGGSD [F8Y] | 2.25 |
| TSVRRALFTGGID [S12I] | 6.14 |
| TSVRRALFTGNSD [G11N] | 6.17 |
| TSVRDALFTGGSD [R5D] | -0.44 |
| TSVRRALFTGASD [G11A] | 6.07 |
| TSVRRALFTGVSD [G11V] | 6.36 |
| TIVRRALFTGGSD [S2I] | 5.2 |
| TSVRRCLFTGGSD [A6C] | 6.84 |
| TSLRRALFTGGSD [V3L] | 1.66 |
| TSVRRAQFTGGSD [L7Q] | 0.104 |
| TMVRRALFTGGSD [S2M] | 5.93 |
| TSVRRALFTGGFD [S12F] | 5.85 |
| TSVRRALFTSGSD [G10S] | 6.74 |

Block 4 — technique: aptamer microarray, sandwich; molecule type: DNA with 2'F-ANA; medium: in vitro; tested at: 200 nM; together with: Cy3 exosite-II aptamer, 400 nM; direction: higher = stronger binding; strand: GGTTGGTGTGGTTGG
Target: Prothrombin, mature alpha-thrombin (F2, Homo sapiens, UniProt P00734)
Notes: whole 15-mer aptamer, many near background
| Modification | mean fluorescence intensity [a.u.] |
| --- | --- |
| 2'F-ANA at 1 4 5 6 8 10 12 14 15 | 57.5 |
| 2'F-ANA at 2 3 9 10 13 14 15 | 261 |
| 2'F-ANA at 1 2 4 7 8 9 10 12 14 | 44.2 |
| 2'F-ANA at 4 6 7 8 9 13 15 | 183 |
| 2'F-ANA at 2 3 8 10 13 15 | 321 |
| 2'F-ANA at 7 8 10 11 13 14 15 | 123 |
| 2'F-ANA at 1 3 5 7 9 10 12 14 | 46.7 |
| 2'F-ANA at 2 3 4 6 7 9 14 15 | 228 |

Block 5 — technique: competition protein-binding microarray; molecule type: double-stranded DNA, one strand shown; medium: in vitro; tested at: 2 µM; together with: Cbf1 competitor, 0.05 µM; direction: higher = stronger binding; all sequences stand within: … GTCTTGATTCGCTTGACGCTGCTG
Target: Phosphate system positive regulatory protein PHO4, full length, GST-tagged (PHO4, Saccharomyces cerevisiae, UniProt P07270, residues 1-312)
Notes: whole 60-bp probe, lowest competitor level
Target sequence (chain): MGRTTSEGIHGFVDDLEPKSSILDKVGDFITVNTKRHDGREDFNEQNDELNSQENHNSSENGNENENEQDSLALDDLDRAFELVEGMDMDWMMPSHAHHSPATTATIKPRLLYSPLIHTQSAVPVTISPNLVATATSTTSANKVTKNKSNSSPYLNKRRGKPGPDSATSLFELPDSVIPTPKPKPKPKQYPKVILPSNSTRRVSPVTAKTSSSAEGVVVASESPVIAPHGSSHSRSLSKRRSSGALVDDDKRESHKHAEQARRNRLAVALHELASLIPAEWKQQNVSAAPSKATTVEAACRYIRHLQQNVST
| Strand | fluorescence intensity |
| --- | --- |
| AAAGCGGTAATTTGTCACTTAACTTCACATATCTAT | 3540 a.u. |
| CTAACGAAGGTTTGCCGCGTGGGTGACAAGCCAAGT | 10700 a.u. |
| AGAGTGGTGCTGAAGCTCGTGACGGGAACAAGATCA | 6810 a.u. |
| GACAGATAGGACAAGCATGTGGTCTTGGCGCCTCTG | 10300 a.u. |
| AGCCGACGCCGTAGTCGCGTGCCGATGCCCTTAGCG | 7680 a.u. |
| CGGGGTTAAGTTTGCCCAGTGGGTGGCTTGCAGCAG | 4650 a.u. |
| CGGGGTTAAGTTTGATCCGTGGGTGGCTTGCAGCAG | 6190 a.u. |
| ATCTTGACATTAGATCAGCTGATAAGTTTTCAACTT | 3480 a.u. |

Further values, each from its own experiment
P1: PafA, mature enzyme, eGFP fusion (Elizabethkingia meningoseptica, UniProt Q9KJX5); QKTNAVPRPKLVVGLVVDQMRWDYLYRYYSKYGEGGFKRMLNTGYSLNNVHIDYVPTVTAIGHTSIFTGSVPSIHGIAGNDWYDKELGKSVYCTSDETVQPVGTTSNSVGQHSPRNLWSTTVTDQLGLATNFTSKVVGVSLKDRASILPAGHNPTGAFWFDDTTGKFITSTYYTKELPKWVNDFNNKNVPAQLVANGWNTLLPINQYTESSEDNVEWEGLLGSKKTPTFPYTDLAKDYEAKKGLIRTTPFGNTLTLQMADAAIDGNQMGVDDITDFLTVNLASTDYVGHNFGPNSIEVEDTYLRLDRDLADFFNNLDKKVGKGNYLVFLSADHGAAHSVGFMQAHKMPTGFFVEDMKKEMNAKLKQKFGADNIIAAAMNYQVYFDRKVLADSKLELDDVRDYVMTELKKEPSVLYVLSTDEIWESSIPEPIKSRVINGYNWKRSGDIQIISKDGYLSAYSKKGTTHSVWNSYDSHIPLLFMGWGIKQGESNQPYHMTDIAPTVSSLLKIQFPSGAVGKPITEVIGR
| Molecule | target | test | system | conditions | how to read | quantity | result |
| --- | --- | --- | --- | --- | --- | --- | --- |
| P1 N491V | tungstate, free oxyanion | microfluidic competitive inhibition | in vitro, cell-free expressed | not given, derived from inhibition constants, unchanged parent 2230 nM | lower = stronger binding | oxyanion analog dissociation constant | 2.38 µM |
| CCn1cnc2c(Nc3cccc(Cl)c3)nc(N[C@H]3CCCC[C@H]3N)nc21 | Dual specificity protein kinase CLK4 (CLK4, Homo sapiens, UniProt Q9HAZ1) | enzyme activity, inhibitor |  | 0.5 µM | baseline: control | remaining activity | 49.9% |

For quick reference, copied from above (block 3):
| Change | normalised enrichment score |
| --- | --- |
| TSVRRALFTYGSD [G10Y] | 6 |
| TSVRRALFTGGFD [S12F] | 5.85 |
| TSLRRALFTGGSD [V3L] | 1.66 |
| TSVRRALFTGNSD [G11N] | 6.17 |
| TSGRRALFTGGSD [V3G] | 1.33 |
| TSVRRALFMGGSD [T9M] | 6.34 |
| TPVRRALFTGGSD [S2P] | 5.99 |
